Measured values gathered from unrelated publications.
Compare with care: the assays were run in different laboratories. ± marks the error that the study gave.
Route: intravenous

`O=C([O-])CN1CCN(CC(=O)[O-])CCN(CC(=O)NC[C@H]2CC[C@H](C(=O)N[C@H](Cc3cnc4ccccc4c3)C(=O)NCCCC[C@H](NC(=O)N[C@@H](CCC(=O)O)C(=O)O)C(=O)O)CC2)CCN(CC(=O)[O-])CC1.[64Cu+2]` has a tissue uptake of 18.6 %ID/g (ex vivo gamma counting; 22Rv1 tumour-bearing mice, lung; 0.74 MBq, 6 h post-injection).
`O=C(NCC1OC2CCC=CCCC2O1)c1ccc([18F])nc1` (centres unmarked) has a tissue uptake of 2.2 ± 0.4 %ID/g (healthy female BALB/c nude mice, brain; 7.4 MBq per mouse, 2 min).
`Cc1cc(C)n(CCN(CCN)CCCCCCNC(=O)[C@@H](N)Cc2c[nH]cn2)n1.[99Tc+].[C-]#[O+].[C-]#[O+].[C-]#[O+]` gave a tissue uptake of 0.1 ± 0.01 %IA/g (BALB/c nude mice, A549 xenograft, muscle; 4 h).
The tissue uptake of `CCCC[C@H](NC(=O)COCCOCCNC(=O)CN1CCN(CC(=O)O)CCN(CC(=O)O)CC1)C(=O)N[C@H]1CC(=O)NCCCC[C@@H](C(N)=O)NC(=O)[C@H](Cc2c[nH]c3ccccc23)NC(=O)[C@H](CCCNC(=N)N)NC(=O)[C@@H](Cc2ccccc2)NC(=O)[C@H](Cc2c[nH]cn2)NC1=O` [fluorine-18 labelled] is reported as 4.51 ± 0.68 %ID/g (C57 mice B16-F10 melanoma, bone; 0.37 MBq, 1 h).
With `COc1ccc(Nc2nc(Nc3ccc(OCCOCC[18F])cc3)ncc2Br)cc1` the tissue uptake was 2.84 ± 0.34 %ID/g (ICR mice, S180 tumour-bearing, lung; 370 kBq, 30 min).
The tissue uptake of `CC(C)C[C@H](NC(=O)[C@@H](CCCCNC(=O)[C@@H](Cc1ccccc1)NC(=O)CCCCCCCNC(=O)CN1CCN(CC(=O)O)CCN(CC(=O)O)CCN(CC(=O)O)CC1)NC(=O)[C@H](Cc1ccc(O)cc1)NC(=O)[C@H](CO)NC(=O)[C@H](Cc1c[nH]c2ccccc12)NC(=O)[C@H](Cc1c[nH]cn1)NC(=O)[C@@H]1CCC(=O)N1)C(=O)N[C@@H](CCCNC(=N)N)C(=O)N1CCC[C@H]1C(=O)NCC(N)=O` [indium-111 labelled] is reported as 6.14 ± 0.32 %ID/g (male athymic nude mice, DU-145 prostate cancer xenograft, kidney; 0.037 MBq, 4 h).
`CCCC[C@H](NC(=O)CNC(=O)CNC(=O)[C@H](CCCCNC(=O)[C@H](CC(=O)O)NC(=O)C(C)c1ccc(CC(C)C)cc1)NC(=O)CN1CCN(CC(=O)O)CCN(CC(=O)O)CCN(CC(=O)O)CC1)C(=O)N[C@H]1CC(=O)NCCCC[C@@H](C(N)=O)NC(=O)[C@H](Cc2c[nH]c3ccccc23)NC(=O)[C@H](CCCNC(=N)N)NC(=O)[C@@H](Cc2ccccc2)NC(=O)[C@H](Cc2c[nH]cn2)NC1=O` (some centres unmarked) [lutetium-177 labelled] has a tissue uptake of 0.55 ± 0.11 %ID/g (C57 mice, tumour-bearing, blood; 0.037 MBq, 4 h).
For `COc1ccc(Nc2nc(Nc3ccc(OCCOCCOCC[18F])cc3)ncc2Br)cc1`, the tissue uptake was 2.87 ± 0.24 %ID/g (ICR mice, S180 tumour-bearing, spleen; 370 kBq, 5 min).

For quick reference, copied from above:
`O=C(NCC1OC2CCC=CCCC2O1)c1ccc([18F])nc1` (centres unmarked) has a tissue uptake of 2.2 ± 0.4 %ID/g (healthy female BALB/c nude mice, brain; 7.4 MBq per mouse, 2 min).
